Measurements from different studies.
Lines come from different studies, so protocols differ.
Organism: Acinetobacter baumannii

`CC[C@H](C)[C@H](NC(=O)CNC(=O)[C@H](CC(=O)O)NC(=O)[C@H](CCC(=O)O)NC(=O)[C@@H](NC(=O)[C@H](CC(N)=O)NC(=O)[C@H](CCCNC(=N)N)NC(=O)CNC(=O)[C@@H](NC(=O)[C@H](CCCCN)NC(=O)[C@H](CCC(=O)O)NC(=O)[C@@H](NC(=O)[C@H](CCCCN)NC(=O)[C@H](CCCCN)NC(=O)[C@H](Cc1ccccc1)NC(=O)[C@@H](NC(=O)[C@H](CCCCN)NC(=O)[C@H](Cc1c[nH]c2ccccc12)NC(=O)[C@@H](N)CCCNC(=N)N)[C@@H](C)CC)[C@@H](C)CC)C(C)C)C(C)C)C(=O)N[C@H](C(=O)N[C@@H](CCCCN)C(=O)N[C@@H](C)C(=O)NCC(=O)N1CCC[C@H]1C(=O)N[C@@H](C)C(=O)N[C@H](C(=O)N[C@@H](C)C(=O)N[C@H](C(=O)N[C@H](C(=O)NCC(=O)N[C@@H](CCC(N)=O)C(=O)N[C@@H](C)C(=O)N[C@@H](C)C(=O)N[C@H](C(=O)N[C@H](C(=O)N[C@H](C(=O)N[C@@H](CCCCN)C(N)=O)C(C)C)C(C)C)[C@@H](C)O)C(C)C)C(C)C)C(C)C)[C@@H](C)CC` has an MIC of 32 µM (KCCM 40203, Mueller-Hinton broth; 16 h, 37 °C; growth inhibition over 99%).
The MIC of `CN1C(=O)Cc2ccc(F)c(CNCCCC3CN(c4ccc5c(n4)NC(=O)CO5)C(=O)O3)c21` (stereo not drawn) is reported as 0.25 µg/mL (ATCC 19606).
`CC(C)[C@H](NC(=O)[C@H](C)N)C(=O)N[C@@H](C)C(=O)N[C@H](C(=O)N[C@H](C(=O)NCC(=O)N[C@@H](CCC(N)=O)C(=O)N[C@@H](C)C(=O)N[C@@H](C)C(=O)N[C@H](C(=O)N[C@H](C(=O)N[C@H](C(=O)N[C@@H](CCCCN)C(N)=O)C(C)C)C(C)C)[C@@H](C)O)C(C)C)C(C)C` gave an MIC of over 64 µM (KCCM 40203, Mueller-Hinton broth; 16 h, 37 °C; growth inhibition over 99%).
With `CC[C@H](C)[C@H](NC(=O)[C@H](CC(C)C)NC(=O)[C@H](CCCCN)NC(=O)[C@@H](NC(=O)[C@H](C)NC(=O)[C@H](CCC(=O)O)NC(=O)[C@H](Cc1c[nH]cn1)NC(=O)[C@@H](NC(=O)[C@H](CCCCN)NC(=O)[C@H](CCC(N)=O)NC(=O)[C@H](Cc1ccccc1)NC(=O)[C@@H](N)C(C)C)[C@@H](C)CC)[C@@H](C)CC)C(N)=O` the MIC was over 128 µM (CLSI broth microdilution; ATCC 19606; 18 h, 37 °C).
`CC[C@H](C)[C@H](NC(=O)[C@H](CC(C)C)NC(=O)[C@H](CCCNC(=N)N)NC(=O)[C@H](CCCNC(=N)N)NC(=O)[C@H](CCCNC(=N)N)NC(=O)[C@H](CCCNC(=N)N)NC(=O)[C@H](CC(C)C)NC(=O)[C@@H](NC(=O)[C@@H](NC(=O)[C@@H](NC(=O)[C@H](CC(C)C)NC(=O)[C@H](CCCNC(=N)N)NC(=O)[C@H](CO)NC(=O)[C@@H](N)CO)C(C)C)[C@@H](C)CC)[C@@H](C)CC)C(=O)N[C@@H](CO)C(=O)N[C@@H](CCCNC(=N)N)C(=O)N[C@@H](CCCNC(=N)N)C(=O)N[C@@H](CCCNC(=N)N)C(=O)N[C@@H](CCCNC(=N)N)C(N)=O` gave an MIC of 1 µM (broth microdilution; ATCC 17978; highest value reported).
`CC[C@H](C)[C@H](NC(=O)[C@H](CC(C)C)NC(=O)[C@H](CCCNC(=N)N)NC(=O)[C@@H](N)CCCNC(=N)N)C(=O)N[C@@H](CCCNC(=N)N)C(=O)N[C@H](C(=O)N[C@@H](CCCCN)C(=O)N[C@H](C(=O)NCC(=O)N1CCC[C@H]1C(=O)N[C@H](C(=O)N[C@H](C(=O)N[C@@H](Cc1ccc(O)cc1)C(=O)N[C@@H](CCCCN)C(=O)N[C@@H](Cc1ccc(O)cc1)C(=O)N[C@@H](Cc1ccccc1)C(=O)N[C@@H](CCCCN)C(=O)N[C@@H](CCCCN)C(=O)N[C@@H](CCC(N)=O)C(=O)N[C@@H](CC(C)C)C(=O)N[C@@H](CC(C)C)C(=O)N[C@@H](CCCCN)C(=O)N[C@@H](CCCCN)C(N)=O)[C@@H](C)CC)[C@@H](C)CC)[C@@H](C)O)[C@@H](C)O` has an MIC of 2 µM (ATCC BAA1605, Mueller-Hinton broth; 24 h).
With `N=C(N)NCCC[C@H](NC(=O)[C@@H](N)CCCNC(=N)N)C(=O)N[C@@H](Cc1c[nH]c2ccccc12)C(=O)N[C@@H](Cc1c[nH]c2ccccc12)C(=O)N[C@@H](Cc1ccccc1)C(=O)N[C@@H](CCC(N)=O)C(=O)N[C@@H](Cc1ccccc1)C(=O)N[C@@H](CCC(N)=O)C(=O)N[C@@H](Cc1ccccc1)C(=O)N[C@@H](CCCCN)C(N)=O` the MIC was 140 µM (broth microdilution, optical density).
`CC[C@H](C)[C@H](NC(=O)[C@H](CCCCN)NC(=O)[C@H](CCCCN)NC(=O)CNC(=O)[C@H](CCCCN)NC(=O)[C@H](CC(C)C)NC(=O)[C@H](CCCCN)NC(=O)[C@H](CCCNC(=N)N)NC(=O)[C@@H](NC(=O)[C@H](CC(C)C)NC(=O)[C@H](CCCNC(=N)N)NC(=O)[C@@H](N)CCCNC(=N)N)[C@@H](C)CC)C(=O)N[C@@H](Cc1ccc(O)cc1)C(=O)N[C@@H](CC(C)C)C(=O)N[C@@H](Cc1ccc(O)cc1)C(=O)N[C@@H](Cc1ccccc1)C(=O)N[C@@H](CCCCN)C(=O)N[C@@H](CC(C)C)C(=O)N[C@@H](CCC(N)=O)C(=O)N[C@@H](CC(C)C)C(=O)N[C@@H](CC(C)C)C(=O)N[C@@H](CCCCN)C(=O)N[C@@H](CCCCN)C(N)=O` gave an MIC of 4 µM (KCCM 40203, Mueller-Hinton broth; 24 h).
For `CC[C@H](C)[C@H](NC(=O)CN)C(=O)NCC(=O)N[C@@H](CCCCN)C(=O)N[C@@H](Cc1ccccc1)C(=O)N[C@@H](CC(C)C)C(=O)N[C@@H](CCCCN)C(=O)N[C@@H](CCCCN)C(=O)N[C@@H](C)C(=O)N[C@@H](CCCCN)C(=O)N[C@@H](CCCCN)C(=O)N[C@@H](Cc1ccccc1)C(=O)NCC(=O)N[C@@H](CCCCN)C(=O)N[C@@H](C)C(=O)N[C@@H](Cc1ccccc1)C(=O)N[C@H](C(=O)N[C@@H](CCCCN)C(=O)N[C@H](C(=O)N[C@@H](CC(C)C)C(=O)N[C@@H](CCCCN)C(=O)N[C@@H](CCCCN)C(N)=O)[C@@H](C)CC)C(C)C`, the MIC was under 3.1 µM (broth dilution; ATCC 19606).
The MIC of `CC[C@H](C)CCCCC(=O)N[C@@H](CCN)C(=O)N[C@H](C(=O)N[C@@H](CCN)C(=O)N[C@H]1CCNC(=O)[C@H]([C@@H](C)O)NC(=O)[C@H](CCN)NC(=O)[C@H](CCN)NC(=O)[C@H](CC(C)C)NC(=O)[C@@H](CC(C)C)NC(=O)[C@H](CCN)NC1=O)[C@@H](C)O` is reported as 0.25 µg/mL (broth microdilution; BNCC 194496).
`CC[C@H](C)[C@H](NC(=O)CNC(=O)[C@H](CC(=O)O)NC(=O)[C@H](CCCNC(=N)N)NC(=O)[C@@H](NC(=O)[C@H](CC(N)=O)NC(=O)[C@H](CCCNC(=N)N)NC(=O)CNC(=O)[C@@H](NC(=O)[C@H](CCCCN)NC(=O)[C@H](CCC(=O)O)NC(=O)[C@@H](NC(=O)[C@H](CCCCN)NC(=O)[C@H](CCCCN)NC(=O)[C@H](Cc1ccccc1)NC(=O)[C@@H](NC(=O)[C@H](CCCCN)NC(=O)[C@H](Cc1c[nH]c2ccccc12)NC(=O)[C@@H](N)CCCNC(=N)N)[C@@H](C)CC)[C@@H](C)CC)C(C)C)C(C)C)C(=O)N[C@H](C(=O)N[C@@H](CCCCN)C(=O)N[C@@H](C)C(=O)NCC(=O)N1CCC[C@H]1C(=O)N[C@@H](C)C(=O)N[C@H](C(=O)N[C@@H](C)C(=O)N[C@H](C(=O)N[C@H](C(=O)NCC(=O)N[C@@H](CCC(N)=O)C(=O)N[C@@H](C)C(=O)N[C@@H](C)C(=O)N[C@H](C(=O)N[C@H](C(=O)N[C@H](C(=O)N[C@@H](CCCCN)C(N)=O)C(C)C)C(C)C)[C@@H](C)O)C(C)C)C(C)C)C(C)C)[C@@H](C)CC` gave an MIC of 1 µM (CCARM 12006 carbapenem-resistant).
`CC[C@H](C)[C@H](NC(=O)[C@H](CC(C)C)NC(=O)[C@H](CC(C)C)NC(=O)[C@H](CC(C)C)NC(=O)[C@@H](NC(=O)[C@@H](NC(=O)[C@H](CCCCN)NC(=O)[C@H](CCCCN)NC(=O)[C@H](CCCCN)NC(=O)[C@H](CCCCN)NC(=O)[C@H](CC(C)C)NC(=O)[C@H](CCCNC(=N)N)NC(=O)[C@H](CO)NC(=O)[C@@H](N)CO)[C@@H](C)CC)C(C)C)C(=O)N[C@@H](CO)C(=O)N[C@@H](CCCCN)C(=O)N[C@@H](CCCCN)C(=O)N[C@@H](CCCCN)C(=O)N[C@@H](CCCCN)C(N)=O` gave an MIC of 8 µM (broth microdilution; ATCC 17978; highest value reported).
`CC(=O)N[C@@H](CC(C)C)C(=O)N[C@@H](CC(C)C)C(=O)N[C@@H](CCCCN)C(=O)N[C@@H](CC(C)C)C(=O)N[C@@H](CC(C)C)C(=O)N[C@@H](CCCCN)C(=O)N[C@@H](CCCCN)C(=O)N1CCC[C@H]1C(=O)N[C@@H](CC(C)C)C(=O)N[C@@H](CCCCN)C(=O)N[C@@H](CC(C)C)C(=O)N[C@@H](CC(C)C)C(=O)N[C@@H](CCCCN)C(N)=O` gave an MIC of over 80 µM (broth microdilution; ATCC 17978; 18 h, 37 °C, compound alone).
`CC[C@H](C)[C@H](NC(=O)CN)C(=O)NCC(=O)N[C@@H](C)C(=O)N[C@H](C(=O)N[C@@H](CC(C)C)C(=O)N[C@@H](CCCCN)C(=O)N[C@H](C(=O)N[C@@H](CC(C)C)C(=O)N[C@H](C(=O)N[C@H](C(=O)NCC(=O)N[C@@H](CC(C)C)C(=O)N1CCC[C@H]1C(=O)N[C@@H](C)C(=O)N[C@@H](CC(C)C)C(=O)N[C@H](C(=O)N[C@@H](CO)C(=O)N[C@@H](Cc1c[nH]c2ccccc12)C(=O)N[C@H](C(=O)N[C@@H](CCCCN)C(=O)N[C@@H](CCCNC(=N)N)C(=O)N[C@@H](CCCCN)C(=O)N[C@@H](CCCNC(=N)N)C(=O)N[C@@H](CCC(N)=O)C(=O)N[C@@H](CCC(N)=O)C(N)=O)[C@@H](C)CC)[C@@H](C)CC)[C@@H](C)O)[C@@H](C)O)C(C)C)C(C)C` gave an MIC of 16 µM (CCARM 12006 carbapenem-resistant).
`C[C@@H](O)[C@H]1C(=O)N2C(C(=O)O)=C(SCCN=CN)C[C@H]12` has an MIC of over 64 µg/mL (carbapenem-resistant clinical isolate).

A few entries again:
The MIC of `CC[C@H](C)CCCCC(=O)N[C@@H](CCN)C(=O)N[C@H](C(=O)N[C@@H](CCN)C(=O)N[C@H]1CCNC(=O)[C@H]([C@@H](C)O)NC(=O)[C@H](CCN)NC(=O)[C@H](CCN)NC(=O)[C@H](CC(C)C)NC(=O)[C@@H](CC(C)C)NC(=O)[C@H](CCN)NC1=O)[C@@H](C)O` is reported as 0.25 µg/mL (broth microdilution; BNCC 194496).
`CC[C@H](C)[C@H](NC(=O)CNC(=O)[C@H](CC(=O)O)NC(=O)[C@H](CCCNC(=N)N)NC(=O)[C@@H](NC(=O)[C@H](CC(N)=O)NC(=O)[C@H](CCCNC(=N)N)NC(=O)CNC(=O)[C@@H](NC(=O)[C@H](CCCCN)NC(=O)[C@H](CCC(=O)O)NC(=O)[C@@H](NC(=O)[C@H](CCCCN)NC(=O)[C@H](CCCCN)NC(=O)[C@H](Cc1ccccc1)NC(=O)[C@@H](NC(=O)[C@H](CCCCN)NC(=O)[C@H](Cc1c[nH]c2ccccc12)NC(=O)[C@@H](N)CCCNC(=N)N)[C@@H](C)CC)[C@@H](C)CC)C(C)C)C(C)C)C(=O)N[C@H](C(=O)N[C@@H](CCCCN)C(=O)N[C@@H](C)C(=O)NCC(=O)N1CCC[C@H]1C(=O)N[C@@H](C)C(=O)N[C@H](C(=O)N[C@@H](C)C(=O)N[C@H](C(=O)N[C@H](C(=O)NCC(=O)N[C@@H](CCC(N)=O)C(=O)N[C@@H](C)C(=O)N[C@@H](C)C(=O)N[C@H](C(=O)N[C@H](C(=O)N[C@H](C(=O)N[C@@H](CCCCN)C(N)=O)C(C)C)C(C)C)[C@@H](C)O)C(C)C)C(C)C)C(C)C)[C@@H](C)CC` gave an MIC of 1 µM (CCARM 12006 carbapenem-resistant).
